Measurements of several laboratories.
Each line is one published result; not all experiments were run side by side. ± marks the error that the study gave.

| Structure (SMILES) | tested on | test | system | conditions | scale | endpoint | value |
| --- | --- | --- | --- | --- | --- | --- | --- |
| O=C(/C=C/C=C/C=C/C1CCCCC1)NC1=C[C@@](O)(/C=C/C=C/C=C/C(=O)NC2=C(O)CCC2=O)[C@@H]2O[C@@H]2C1=O | NCI-H3255 | cell growth, CellTiter-Glo |  | 78 h |  | GI50 | 11.4 µM |
| Oc1ccccc1-c1n[nH]cc1-c1ccnc2ccccc12 | STE11 (Candida albicans) | kinase binding, MIB/MS competition | Candida albicans lysate | 1 µM | baseline: DMSO | log2 fold change | 0.12 |
| COc1cccc(-c2ccc(NC(=O)C3=C(C(=O)O)CCC3)c(F)c2)c1 | COS-7 |  |  | 10 µM, 24 h, 0.1% DMSO, unit not given | baseline: vehicle control | necrotic cells | 0.92 ± 0.4 |
| CCn1cc(-c2cc(Cn3ccoc3=N)cc3c2CCN([C@@H](C)c2cc(OC)ccn2)C3=O)c(C(F)(F)F)n1 | Lu-65 | cell growth, inhibitor |  | 120 h |  | EC50 | > 30 µM |
| COc1cccc2c(Nc3ccc4[nH]c(C(=O)N/N=C/c5ccc(SC)cc5)cc4c3)cc(C)nc12 | COS-7 | WST-8 |  | 3 µM, 24 h, 0.1% DMSO, unit not given | baseline: vehicle control | metabolic activity | 0.9 ± 0.1 |
| Cn1cc(-c2ccc(-c3cncc(Cl)c3N3CCC4(CCNC4=O)CC3)cc2)cn1 | COLO 205 | gene expression, microarray, measured: HIST1H4I mRNA |  | concentration not given, 2 h | baseline: untreated cells | log2 fold change | -2.5 |
| NC(=O)c1cnc2[nH]ccc2c1N[C@@H]1[C@@H]2CC3C[C@H]1C[C@@](O)(C3)C2 |  | flow cytometry | Japanese healthy men, blood | oral, 100 mg twice daily, 72 h after day 7 dose | baseline: baseline | CD4+ central memory change | -0.75% |
| CC(=O)c1c(C)cc2cc(O)cc(O[C@@H]3O[C@H](CO)[C@@H](O)[C@H](O)[C@H]3O)c2c1O | HepaRG co-cultured with HK-2 | MTT |  | 266.67 µM, 24 h | baseline: untreated control | cell viability | 88.3 ± 15.3% |
| O=c1ncccn1[C@@H]1O[C@H](CO)[C@@H](O)[C@H]1O | OCI-Ly1 |  |  | 0.1 µM, 120 h |  | viability | 192% |
| c1coc(-c2n[nH]cc2-c2ccnc3ccccc23)c1 | IKS1 (Candida albicans) | kinase binding, MIB/MS competition | Candida albicans lysate | 10 µM | baseline: DMSO | log2 fold change | -0.17 |
| COC(=O)/C=C/C(=O)N(O)CCCCNCc1ccc(COC(=O)Nc2cccc3ccccc23)cc1 | OCI-Ly1 |  |  | 1 µM, 120 h |  | viability | 145% |
| O=C(O)CNC(=O)Cc1ccccc1 |  |  | ventricular cardiomyocytes, C57BL/6 mouse | dose not given, 0.196 s |  | sarcomere length | 1.62 µm |
| O=C(CCCCCCC(=O)Nc1ccc([C@H]2O[C@@H](CSc3nc(-c4ccccc4)c(-c4ccccc4)o3)C[C@@H](c3ccc(CO)cc3)O2)cc1)NO | OCI-Ly1 |  |  | 0.1 µM, 120 h |  | viability | 186% |
| CC(C)NCC(O)c1ccc(O)c(O)c1 (stereo not shown) |  |  | ventricular cardiomyocytes, C57BL/6 mouse | dose not given, 0.464 s |  | sarcomere length | 1.65 µm |
| COc1c(O[C@@H]2O[C@H](CO)[C@@H](O)[C@H](O)[C@H]2O)cc2c(c1O)C(=O)c1c(cc(C)c(O)c1OC)C2=O | HepaRG co-cultured with HK-2 | MTT |  | 266.67 µM, 24 h | baseline: untreated control | cell viability | 44 ± 9.9% |
| NC(=O)C1CCCc2c1[nH]c1ccc(Cl)cc21 (racemic) | OCI-Ly1 |  |  | 0.5 µM, 120 h |  | viability | 159% |

Excerpt of the above:
| Structure (SMILES) | tested on | test | system | conditions | scale | endpoint | value |
| --- | --- | --- | --- | --- | --- | --- | --- |
| c1coc(-c2n[nH]cc2-c2ccnc3ccccc23)c1 | IKS1 (Candida albicans) | kinase binding, MIB/MS competition | Candida albicans lysate | 10 µM | baseline: DMSO | log2 fold change | -0.17 |
| COc1cccc2c(Nc3ccc4[nH]c(C(=O)N/N=C/c5ccc(SC)cc5)cc4c3)cc(C)nc12 | COS-7 | WST-8 |  | 3 µM, 24 h, 0.1% DMSO, unit not given | baseline: vehicle control | metabolic activity | 0.9 ± 0.1 |
